Measurements pooled from the literature.
Numbered parts are unrelated; each lists some results of a single study.

Study 1
Target: RNA binding protein fox-1 homolog 2, RRM domain, GST-SBP tag (RBFOX2, Homo sapiens, UniProt O43251-10, residues 100-194)
Method: RNA Bind-n-Seq
Molecule type: RNA
Sample: in vitro
Tested at: 365 nM
Setting: natural RNA segment, single round, ends assumed
Baseline: no-protein control
Direction: higher = stronger binding
Endpoint: RBNS enrichment (R)
Constant ends, left off below: GGGAGUUCUACAGUCCGACGAUC … UGGAAUUCUCGGGUGCCAA
Residues (chain): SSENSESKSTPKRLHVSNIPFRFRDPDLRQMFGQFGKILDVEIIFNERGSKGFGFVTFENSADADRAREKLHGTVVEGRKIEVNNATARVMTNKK
GGUUGAAUUUGAUACACACAGGAAGUUUUCUUGAAGAACAAUCCUUUCGCUUUUCUUUUUUCUUGAGAGAUCUAAAGAGAAACUGUAGAUUGUUUUCCUGACAGCAAAAG: 0.486
UGGAAGCAUACCCCAAGACCCCAAGCCUUGACUCCAGCUGCGCCCACAGGAAGUCCAGUCCCGACAGUGCCCUUGUUGCCUUUGAGCCAGAUCCAUGGCAAUGGUCUCCC: 0.636
GCUGAGGCAGGAGGAUUCUUUGAGCCCAGGAGUUUGAGGUUACAGUGAGCCACAAUCACACCAAUCACUGCACUCCAGCCUGGGCAAUAAAGUAACUCUUGACUCAAAAA: 0.474
UGAGGAAAUGGUUGUCUCCCUGUCCCCAGGCAGGCCUCUUCCCCUCCCUGUCCUGUAAAUAUCCCUCCCCUCUCCAGUCCACCCUCAUCUCCCACCAAGAUCAGCCACCU: 0.645
GAACAAAUUUAUUUUGCUUACCACAGUGUUAUAGCUGGUUCUAGAAAUUUGAAGUCUUUAUAACUUAAUUAUGUUUAAUAAAAAAUAGAGUCUGCCUCGUACUACAGAUG: 0.498
CCUGUCUCCAAAGGACCGGCUCUCCAUGGCUCCUGCGCCUCGUGCUUUCCGCGUACAGAAGUGCUUGCCCGGGGAGUCCCGCCUGACCUGCCUUCAUGUGGACCCUUAGA: 0.325
CCCAGCACGCUGCUGGCAGAGAUGGUUUGAGAACACAUCCAAGCCAGUCCCCCCAGCCCAGCUUCCCCUCCGUUCCUAACUGUUGGCUUUCCCCCAGCCGCACGGGUCCC: 2.24
UCGGGGAGGGAUUCGGCAUGGCCGCGGGGUACCUUCCCAGGCCAGGGCCCUGGAGGCAACUGGCACGGCCUGGUCCCCCUGCUUUGCUGUAUUCUGAUUCCCCAACCCGC: 0.21
AAAUUUGUUUUAUGCAUGAGUUAAUACCACUGGCUCAGCAAAUACAAGUUAGUUUGCUUUAAGCAGGUAACUUUUUUUGUAAUGGAAGAAAUGCACUACAAAGUUAAGAC: 0.42
GAGAGUCAGUCUGAAGAGAACACAGCCCUGGAGCCCCCCGGCCUCCGGGAAGAAGGAGAAGGAGAUGCCCAGUGUGGCCAAGGCUCUCGACACCAGGAGCUGUUGGGAGA: 0.71
UAGACUGGAGAGCAGGGCCUCUCUUGGGAAGGACACAAGGCGGGCAAGGCUGCUGGCAGACUUCUCCACUGACCUGAGUGUGCUUUUUUUUUCCCCUAAAUGUAUUGCAU: 1.06
UGUGAAAUUCCCUCUUCACCUCCCCACCCCCCAAAAAAUAAAAGGGGGCAUAAACUUUAUUCCACUGGAGAAGCCCUGGGGGUGGCUGGAGCCAGCCUGCUGAGAAGCGU: 0.615

Study 2
Target: Fragile X messenger ribonucleoprotein 1, C-terminal low-complexity region (Fmr1, Mus musculus, UniProt P35922)
Method: RNA Bind-n-Seq
Molecule type: RNA
Sample: in vitro
Tested at: 200 nM
Setting: whole 134-nt RNA, ends assumed
Added: 150 mM KCl
Baseline: input library
Direction: higher = stronger binding
Endpoint: log2 enrichment
Constant ends, left off below: GGGAGUUCUACAGUCCGACGAUC … UGGAAUUCUCGGGUGUCAAGG
ACCAUGCAGGUGGGCAUCUUUGGGAAGUGGGGCAAGGGGGGGAUAGGGAGGGGGGUAACACUUUGGGAACAGGUGGUCUCAGGUCGUUUC: 0.726
UCCUCAAGUCCUGUGCUACACAUCGUAUGUACCGAAUCGGUGGAAAGGAGGAAAGUAUUAUGUUACGCCGUUCGGAUCUGCACUUCCAGC: -0.43
ACCAUGCAGGUGGGCAUCUUUGGGAAGUGGGGCAAGGGGGGGAUAGGGAGGGUGGUAACACUUUGGGAACAGGUGGUCCCAGGUCGUUUC: 0.792
CUCAAGUCCUGUGCUACACAUCGUAUGUACCGAAUCGGGGCCGGCCGGGCCGGGAAAGUAUUAUGUUACGCCGUUCGGAUCUGCACUUCC: -0.203
GUCCUGUGCUACACAUCGUAUGUACCGAAUCGGGUUUGGGAAAAAGGGAAAAAAAGGGAAAGUAUUAUGUUACGCCGUUCGGAUCUGCAC: -0.247
ACCAUGCAGGUGGGCAUCUUUGGGAAGUGGGGCAAGGGGGGGAUAGGGAGGGGGGUAACACUUUGGGAACAGGUGGUCCAAAGUCGUUUC: 0.78
CCUCAAGUCCUGUGCUACACAUCGUAUGUACCGAAUCGGGCGGGGCGGCGGGGAAAGUAUUAUGUUACGCCGUUCGGAUCUGCACUUCCA: 0.99
GUCCUGUGCUACACAUCGUAUGUACCGAAUCGGUUUUUGGGUUUUUGGGUUUUUGGGGAAAGUAUUAUGUUACGCCGUUCGGAUCUGCAC: -0.0453
UCUCCACCUGCUGAGCUCCCCAGUUUGAGGCGGAGCACACGCCAAAAGACCACGGGCUCCUGUGCUAGUACCAGGUAAUUUGUUUUUUUU: 0.44
UGCCGAUUCGGAAGUCCUUGAGGAGCGUCAGAAGCGGCUUCCCUACGUCCCAGAGCCCUAUUACCCGGAAUCUGGAUGGGACCGCCUCCG: -0.489
CAAGUCCUGUGCUACACAUCGUAUGUACCGAAUCGGAAAGGGAAAGGGGAAAGGGGAAAGUAUUAUGUUACGCCGUUCGGAUCUGCACUU: 0.0621
UCCUCAAGUCCUGUGCUACACAUCGUAUGUACCGAAUCGGGGUGGUGGUGGGAAAGUAUUAUGUUACGCCGUUCGGAUCUGCACUUCCAG: 0.65
AAGUCCUGUGCUACACAUCGUAUGUACCGAAUCGGGGCCCCGGGCCCCGGCCCCGGGAAAGUAUUAUGUUACGCCGUUCGGAUCUGCACU: -0.719
UCCUGUGCUACACAUCGUAUGUACCGAAUCGGCCCCCCGGCCCCCCGGGGCCCCCCGGGAAAGUAUUAUGUUACGCCGUUCGGAUCUGCA: -0.364

Study 3
Target: Interferon regulatory factor 5, full length, phosphomimetic (IRF5, Homo sapiens, UniProt Q13568-2, residues 1-514, S451D/S453D/S456D/S462D)
Method: protein-binding microarray
Molecule type: double-stranded DNA, one strand shown
Sample: in vitro
Tested at: 940 nM top
Setting: 60-bp whole probe
Added: salmon DNA 0.4 mg/ml
Baseline: random background probes
Direction: higher = stronger binding
Endpoint: fitted relative affinity
Constant ends, left off below: GCCTAGCAC … GTCTTGATTCGCTTGACGCTGCTG
AATTTGAGAACGGAAACCAAGTGCTAG: -0.0509 z-score
TTAGGTCTCCTTCTCCTTCAGTGCTAG: 0.519 z-score
GACGATTTCCTACTGCTGACGTGCTAG: 0.684 z-score
CGATTACAGCTAGGTAGTGGGTGCTAG: -0.015 z-score
TTAGGTATCGGACTCGGTTAGTGCTAG: 3.58 z-score
GACGAACTGTGGTTTCGAGACGTGCTA: 2.29 z-score
TCAAGTTTTAATAACACACTGTGCTAG: 0.166 z-score
TCACAATTCTTTTTATGACTGTGCTAG: 0.786 z-score
TTAGGTTTCCTTATCCATTAGTGCTAG: 2.05 z-score
TTAGAACTTAGACTGGATTAGTGCTAG: -0.545 z-score
TTTGGTTCCCTTTTCCTTTAGTGCTAG: 1.06 z-score
CAGCACATGCATCTCCCACAGTGCTAG: 0.191 z-score
CTCTCCATGTGTTTAAAGACGTGCTAG: 0.24 z-score
TTAGGTATCGGTAGCGGTTAGTGCTAG: 9.41 z-score
TCAGAACTGTTTCTTGAACTGTGCTAG: 0.0697 z-score
TTCGAACTGAGTATCGATTAGTGCTAG: 4.87 z-score
GATGGTCTCCTACTGCTGACGTGCTAG: -0.131 z-score

Study 4
Target: Histone acetyltransferase KAT6A, winged helix 1, GST fusion (KAT6A, Homo sapiens, UniProt Q92794, residues 1-85)
Method: protein binding microarray
Molecule type: double-stranded DNA, one strand shown
Sample: in vitro
Tested at: not given
Setting: 8-mer, flanks averaged, mean of 2 arrays, mostly near background
Baseline: not given
Direction: higher = stronger binding
Endpoint: E-score
Construct (chain): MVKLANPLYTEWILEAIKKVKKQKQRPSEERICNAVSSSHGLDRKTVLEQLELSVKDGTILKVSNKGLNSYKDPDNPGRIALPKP
CTACCTGC: 0.118
TATTTACA: -0.123
AAAACTGT: -0.0927
ACTGTGCT: -0.102
ATAGACGG: 0.0769
CGTAGGGA: 0.123
GGGTTCTA: -0.0745
AAATTAAG: -0.142
AGTAATAC: -0.0247
ACGATATA: -0.174
AGATGTGA: -0.142
CAGAGCCA: -0.226
CCGGGCAC: 0.256
ACCGTGAG: 0.0687
CTAACATC: -0.096
ACTGAATA: -0.16
ACTGGACT: -0.287
GGTAGAAA: 0.0652
AATGTGAC: -0.11

Study 5
Target: Sal-like protein 4, full length isoform A (SALL4, Homo sapiens, UniProt Q9UJQ4, residues 1-1053)
Sequence of UniProt Q9UJQ4 (whole entry, looked up): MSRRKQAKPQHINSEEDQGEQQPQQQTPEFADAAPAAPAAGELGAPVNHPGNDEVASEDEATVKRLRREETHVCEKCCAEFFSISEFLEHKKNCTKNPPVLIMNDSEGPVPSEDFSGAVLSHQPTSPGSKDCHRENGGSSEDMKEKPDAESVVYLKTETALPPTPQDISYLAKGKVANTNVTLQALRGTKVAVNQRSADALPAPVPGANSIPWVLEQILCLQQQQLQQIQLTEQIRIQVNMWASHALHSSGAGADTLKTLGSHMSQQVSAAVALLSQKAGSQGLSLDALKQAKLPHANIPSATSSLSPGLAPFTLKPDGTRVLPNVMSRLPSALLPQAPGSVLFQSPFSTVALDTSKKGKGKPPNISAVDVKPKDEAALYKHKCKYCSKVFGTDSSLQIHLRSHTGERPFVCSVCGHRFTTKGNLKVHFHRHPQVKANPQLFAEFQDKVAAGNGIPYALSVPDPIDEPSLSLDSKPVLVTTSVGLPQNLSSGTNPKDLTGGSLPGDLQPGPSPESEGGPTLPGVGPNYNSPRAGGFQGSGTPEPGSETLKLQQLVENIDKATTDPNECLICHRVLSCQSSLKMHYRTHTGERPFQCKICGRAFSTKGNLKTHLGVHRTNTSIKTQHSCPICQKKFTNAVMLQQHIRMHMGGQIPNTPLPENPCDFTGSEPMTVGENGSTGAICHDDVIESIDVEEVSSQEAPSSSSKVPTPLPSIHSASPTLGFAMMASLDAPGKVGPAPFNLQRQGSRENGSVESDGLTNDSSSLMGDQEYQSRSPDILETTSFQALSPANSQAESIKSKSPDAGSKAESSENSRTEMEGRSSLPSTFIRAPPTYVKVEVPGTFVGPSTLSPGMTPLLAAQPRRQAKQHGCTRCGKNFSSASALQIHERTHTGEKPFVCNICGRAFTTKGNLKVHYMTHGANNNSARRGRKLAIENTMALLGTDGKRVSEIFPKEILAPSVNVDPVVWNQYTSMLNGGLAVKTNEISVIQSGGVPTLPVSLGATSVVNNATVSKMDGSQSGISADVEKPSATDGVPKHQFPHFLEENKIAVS
Method: universal PBM
Molecule type: double-stranded DNA, one strand shown
Sample: in vitro
Tested at: 600 nM
Setting: 8-mer, flanks averaged, mean of replicates
Direction: higher = stronger binding
Endpoint: E-score
AGGAGGAC: -0.215
GACAAGCA: -0.0492
GAGCTCCA: -0.29
ATGCCGGG: -0.277
ACAATGGG: 0.023
AACGTCGA: 0.144
CTCCACAG: -0.211
GGGGGGGA: -0.391
GATTTACA: 0.208
CGGACCTC: -0.402
TCCTGAGA: 0.0243
ATTGGGAC: 0.0169
GCTAAAAC: -0.0436
GCCACTCC: -0.175
CTATTTCC: 0.191
ACATTGAC: 0.188
ACATTTAC: 0.22
AGTGGCAT: -0.07
CAGGAAGC: -0.109
CACAAGAC: 0.0072
GACCTATC: -0.0516
ATTTCCCA: 0.142
CTATGTCC: -0.0635
CCAATGTC: -0.0778
CTGATTTC: -0.0239

For quick reference, copied from above (study 4):
CGTAGGGA: 0.123
CTAACATC: -0.096
CAGAGCCA: -0.226
CTACCTGC: 0.118
ACCGTGAG: 0.0687
AGTAATAC: -0.0247
AGATGTGA: -0.142
AAATTAAG: -0.142
